Results pooled from the literature.
Numbered parts are unrelated; each lists some results of a single study. Positions count from the first letter of the parent shown.

Study 1
Target: CCNB3, cyclin fold, Cln2 fusion (human)
Technique: yeast growth competition, sequencing
Matrix: yeast
Notes: weak parent motif
Baseline: not given
Reading: higher = stronger binding
Starting sequence: CDC6 docking peptide (human); TLKGRRLVFDNQL
Substitution	normalised enrichment score
R6G	-0.143
Q12E	-0.0146
F9N	-0.121
N11I	0.175

Study 2
Target: Interferon regulatory factor 5, full length, phosphomimetic (IRF5, Homo sapiens, UniProt Q13568-2, residues 1-514, S451D/S453D/S456D/S462D)
Technique: protein-binding microarray
Molecule type: double-stranded DNA, one strand shown
Matrix: in vitro
Tested at: 940 nM top
Notes: 60-bp whole probe
Added: salmon DNA 0.4 mg/ml
Baseline: random background probes
Reading: higher = stronger binding
Shared flanks, not repeated: GCCTAGCACT … GTGCTAGGTCTTGATTCGCTTGACGCTGCTG
Strand	fitted relative affinity [z-score]
CAATGTTCCCTATTTAACT	1.07
TAGGTTTCCTTCTCCTTTA	2.21
CAGGACTGGGACTGGGTTA	-0.565
CAATTATATATTTATGACT	0.178
CAAAAAATGATTGGTTACT	-0.182

Study 3
Target: Ras GTPase-activating protein-binding protein 1, RRM domain (G3BP1, Homo sapiens, UniProt Q13283)
Chain of UniProt Q13283 (whole entry, looked up): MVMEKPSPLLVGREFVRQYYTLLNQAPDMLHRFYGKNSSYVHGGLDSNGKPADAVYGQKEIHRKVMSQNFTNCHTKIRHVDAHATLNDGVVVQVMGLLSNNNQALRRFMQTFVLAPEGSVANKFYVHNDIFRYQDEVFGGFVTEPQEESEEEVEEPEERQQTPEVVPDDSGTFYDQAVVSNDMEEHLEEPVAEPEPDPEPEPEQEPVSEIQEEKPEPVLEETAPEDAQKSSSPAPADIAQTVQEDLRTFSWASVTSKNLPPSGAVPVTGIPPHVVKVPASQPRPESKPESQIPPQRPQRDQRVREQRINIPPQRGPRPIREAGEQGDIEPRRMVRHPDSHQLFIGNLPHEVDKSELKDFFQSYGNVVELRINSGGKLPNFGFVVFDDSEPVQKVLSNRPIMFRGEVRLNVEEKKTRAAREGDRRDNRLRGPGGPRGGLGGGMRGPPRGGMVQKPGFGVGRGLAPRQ
Technique: RNA Bind-n-Seq
Molecule type: RNA
Matrix: in vitro
Tested at: 1 µM
Notes: whole 134-nt RNA, ends assumed
Added: 150 mM KCl
Baseline: input library
Reading: higher = stronger binding
Strand	log2 enrichment
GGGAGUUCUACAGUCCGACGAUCUACUGCUCCUCAGCAGGAAGCGGAUGCUGAGGUGAACACAGAAACACUAAAUAAGUCCUCCCAGGGGAGCUCCUCGAGCACACAAUCAGCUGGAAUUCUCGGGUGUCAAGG	-0.0381
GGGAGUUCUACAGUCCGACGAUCUGAAGACUAUGAGACUGCUCUAUCAGGAAAGGAAGCCCUUUCGGCUGCGCUGCGCUCACAAAACCUCACCAAGAGUACAGAGAACCACAGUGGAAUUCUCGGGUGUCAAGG	0.0398
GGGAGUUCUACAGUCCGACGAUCUGUGCUACACAUCGUAUGUACCGAAUCGGGGUUUUUUUGGGGAAAAAAAGGGGUUUUUGGGGAAAGUAUUAUGUUACGCCGUUCGGAUCUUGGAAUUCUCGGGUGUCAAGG	0.783
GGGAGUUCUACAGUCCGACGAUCAAGUCCUGUGCUACACAUCGUAUGUACCGAAUCGGGGUUUUGGGUUUUGGGUUUUGGAAAGUAUUAUGUUACGCCGUUCGGAUCUGCACUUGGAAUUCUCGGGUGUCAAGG	-0.22
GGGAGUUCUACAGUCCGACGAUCUCAAGUCCUGUGCUACACAUCGUAUGUACCGAAUCGGUGGUUUUUGGUUUUUGGAAAGUAUUAUGUUACGCCGUUCGGAUCUGCACUUCCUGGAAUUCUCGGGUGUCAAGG	-0.158

Mixed results
Molecule	target	assay	test system	setting	how to read	endpoint	value
PhoQ, residues 284 288 289 292 302 303 AGHLVA	PhoP, residues 12 14 15 18 19 VQGLL (Escherichia coli, UniProt P23836)	Sort-seq, measured: YFP reporter	E. coli	PhoQ-PhoP variant library, added: 10 µM Mg2+	baseline: high Mg2+ state, higher = stronger signaling	fold induction	18.7

For quick reference, copied from above (mixed results):
Molecule	target	assay	test system	setting	how to read	endpoint	value
PhoQ, residues 284 288 289 292 302 303 AGHLVA	PhoP, residues 12 14 15 18 19 VQGLL (Escherichia coli, UniProt P23836)	Sort-seq, measured: YFP reporter	E. coli	PhoQ-PhoP variant library, added: 10 µM Mg2+	baseline: high Mg2+ state, higher = stronger signaling	fold induction	18.7
